Results collected from several papers.
Numbered parts are unrelated; each lists some results of a single study.

Series 1
Target: Sal-like protein 4, full length isoform B (SALL4, Homo sapiens, UniProt Q9UJQ4-2, residues 1-616)
Technique: universal PBM
Molecule type: double-stranded DNA, one strand shown
Matrix: in vitro
Concentration: not given
Notes: 8-mer, flanks averaged, mean of replicates
Direction: higher = stronger binding
Strand | E-score
AAATCATA | 0.363
CGGCTTAA | -0.0902
GTAAGAAC | 0.0341
GGCCCAAA | -0.29
GTGACTGA | 0.025

Series 2
Target: Transcriptional repressor CTCF (CTCF, Homo sapiens, UniProt P49711, residues 1-727, full length assumed)
UniProt P49711, sequence (whole entry, looked up): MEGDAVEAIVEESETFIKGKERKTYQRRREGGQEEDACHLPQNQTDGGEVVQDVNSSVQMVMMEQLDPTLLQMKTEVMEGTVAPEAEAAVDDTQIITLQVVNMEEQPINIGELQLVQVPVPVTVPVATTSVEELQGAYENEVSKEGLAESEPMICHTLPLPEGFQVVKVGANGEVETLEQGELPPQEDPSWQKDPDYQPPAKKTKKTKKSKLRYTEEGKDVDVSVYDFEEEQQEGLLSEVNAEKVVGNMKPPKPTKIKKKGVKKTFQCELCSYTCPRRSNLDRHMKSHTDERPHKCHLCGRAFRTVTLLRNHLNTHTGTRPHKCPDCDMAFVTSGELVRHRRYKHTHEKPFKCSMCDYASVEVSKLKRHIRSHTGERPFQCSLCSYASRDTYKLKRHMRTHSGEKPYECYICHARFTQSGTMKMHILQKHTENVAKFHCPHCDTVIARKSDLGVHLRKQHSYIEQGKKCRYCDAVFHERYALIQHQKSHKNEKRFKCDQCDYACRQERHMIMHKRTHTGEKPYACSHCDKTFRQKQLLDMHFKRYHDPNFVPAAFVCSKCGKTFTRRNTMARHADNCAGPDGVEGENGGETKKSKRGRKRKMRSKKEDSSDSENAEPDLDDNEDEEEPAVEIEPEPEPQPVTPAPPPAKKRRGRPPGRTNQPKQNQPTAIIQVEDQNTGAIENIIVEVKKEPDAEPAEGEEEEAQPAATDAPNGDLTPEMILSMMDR
Technique: protein-binding microarray
Molecule type: double-stranded DNA, one strand shown
Matrix: in vitro
Concentration: not given
Notes: k-mer, scored over probes, only values ≥0.25
Direction: higher = stronger binding
Strand | E-score
GCAAAAAA | 0.271
ATTACCGC | 0.282
AATATTTA | 0.352

Series 3
Target: Histone acetyltransferase KAT6A, winged helix 1, GST fusion (KAT6A, Homo sapiens, UniProt Q92794, residues 1-85)
Technique: protein binding microarray
Molecule type: double-stranded DNA, one strand shown
Matrix: in vitro
Concentration: not given
Notes: 8-mer, flanks averaged, mean of 2 arrays, mostly near background
Relative to: not given
Direction: higher = stronger binding
Residues (chain): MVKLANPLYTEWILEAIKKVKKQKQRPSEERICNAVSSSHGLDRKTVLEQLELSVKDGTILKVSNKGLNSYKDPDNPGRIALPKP
Strand | E-score
AAATGAGC | -0.225
CTTATACC | -0.0725
ACCCATTA | -0.165
ACCCGTCT | 0.214

Other studies, line by line
Substance | target | assay | system | setting | scale | measurement | result
PhoQ, residues 284 288 289 292 302 303 WVSSAF | PhoP, residues 12 14 15 18 19 QWHVF (Escherichia coli, UniProt P23836) | Sort-seq, item: YFP reporter | E. coli | PhoQ-PhoP variant library, together with: 10 µM Mg2+ | relative to: high Mg2+ state, higher = stronger signaling | fold induction | 12.9
